Results collected from several papers.
Lines come from different studies, so protocols differ. Numbers after ± are the reported error.

CC[C@H](C)[C@H](NC(=O)[C@H](CCCCN)NC(=O)[C@@H](NC(=O)[C@H](CCC(N)=O)NC(=O)[C@@H](N)CCCNC(=N)N)[C@@H](C)CC)C(=O)N[C@@H](Cc1c[nH]c2ccccc12)C(=O)N[C@@H](Cc1ccccc1)C(=O)N[C@@H](CCC(N)=O)C(=O)N[C@@H](CC(N)=O)C(=O)N[C@@H](CCCNC(=N)N)C(=O)N[C@@H](CCCNC(=N)N)C(=O)N[C@@H](CCSC)C(=O)N[C@@H](CCCCN)C(=O)N[C@@H](Cc1c[nH]c2ccccc12)C(=O)N[C@@H](CCCCN)C(=O)N[C@@H](CCCCN)C(=O)N[C@@H](CO)C(=O)N[C@@H](Cc1c[nH]c2ccccc12)C(=O)N[C@H](C(=O)N[C@@H](Cc1c[nH]c2ccccc12)C(=O)N[C@@H](CCC(=O)O)C(=O)N[C@@H](CCCCN)C(=O)N[C@@H](CCCCN)C(=O)N[C@@H](CC(C)C)C(=O)N[C@@H](CCC(=O)O)C(=O)N[C@H](C(=O)N[C@@H](C)C(=O)N[C@H](C(=O)N[C@@H](CC(N)=O)C(=O)N[C@@H](CC(C)C)C(=O)N[C@@H](C)C(=O)N[C@@H](Cc1c[nH]c2ccccc12)C(=O)N[C@H](C(=O)N[C@@H](C)C(=O)NCC(=O)N[C@@H](CC(N)=O)C(=O)N[C@@H](CO)C(=O)N[C@@H](CC(N)=O)C(=O)N[C@@H](CCCCN)C(=O)N[C@@H](Cc1c[nH]c2ccccc12)C(=O)N[C@H](C(=O)N[C@@H](Cc1c[nH]c2ccccc12)C(=O)N[C@@H](CCCCN)C(=O)O)[C@@H](C)O)[C@@H](C)O)C(C)C)[C@@H](C)O)[C@@H](C)O
IC50 (CLL patient PBMCs; cell death, PI staining flow cytometry; 90 min, room temperature, serum-free medium): 0.7 µM

CC[C@H](C)[C@H](NC(=O)CN)C(=O)NCC(=O)N[C@@H](C)C(=O)N[C@H](C(=O)N[C@@H](CC(C)C)C(=O)N[C@@H](CCCCN)C(=O)N[C@H](C(=O)N[C@@H](CC(C)C)C(=O)N[C@H](C(=O)N[C@H](C(=O)NCC(=O)N[C@@H](CC(C)C)C(=O)N1CCC[C@H]1C(=O)N[C@@H](C)C(=O)N[C@@H](CC(C)C)C(=O)N[C@H](C(=O)N[C@@H](CO)C(=O)N[C@@H](Cc1c[nH]c2ccccc12)C(=O)N[C@H](C(=O)N[C@@H](CCCCN)C(=O)N[C@@H](CCCNC(=N)N)C(=O)N[C@@H](CCCCN)C(=O)N[C@@H](CCCNC(=N)N)C(=O)N[C@@H](CCC(N)=O)C(=O)N[C@@H](CCC(N)=O)C(N)=O)[C@@H](C)CC)[C@@H](C)CC)[C@@H](C)O)[C@@H](C)O)C(C)C)C(C)C
IC50 (MCF7 vector control (FAP-negative); cell viability, MTT; 72 h): 1.4 ± 0.1 µM

O=C(O)c1ccc([PH]([Au][Cl])(c2ccccc2)c2ccccc2)cc1
IC50 (MDA-MB-157; cell growth or viability, resazurin; 72 h, 3D culture): 9.4 µM

O=C1CC2(C1)C(=O)[O][Pt]1([Cl])([O]C(=O)C(F)(F)F)([NH][C@@H]3CCCC[C@H]3[NH]1)[O]C2=O
IC50 (SGC-7901/CDDP cisplatin-resistant; cell viability, MTT; 48 h): 97.5 ± 3.67 µM

C1N2CN3CN1CP(C2)C3.CC(C)OC(=O)C(n1cccn1)n1cccn1.F[P-](F)(F)(F)(F)F.[Cu+]
IC50 (U-1285; cell viability, MTT): 21.3 ± 2.3 µM

CNC(=O)c1cc(Oc2ccc(NC(=O)c3cc(-c4cccc(COC(=O)CCC(=O)OC5OC6OC7(C)CCC8C(C)CCC(C5C)C68OO7)c4)ccn3)cc2)ccn1 (stereo not drawn)
IC50 (Huh-7; cell growth or viability, MTT; 72 h): 10.8 µM

Oc1c(CN(Cc2ccccn2)Cc2ccccn2)cc(CCn2cc(COCCOCCOCCOCc3cn(CCc4cc(CN(Cc5ccccn5)Cc5ccccn5)c(O)c(CN(Cc5ccccn5)Cc5ccccn5)c4)nn3)nn2)cc1CN(Cc1ccccn1)Cc1ccccn1
IC50 (CHO-K1; cytotoxicity; 72 h): > 100 µM

C[C@H]1[C@H](OC(=O)CCC(=O)Oc2ccc(C(N)=S)cc2)O[C@@H]2O[C@@]3(C)CC[C@H]4[C@H](C)CC[C@@H]1[C@@]24OO3
IC50 (K562; cell growth or viability, CCK-8; 72 h): 1.03 µM

COC(=O)C1CN1S(=O)(=O)c1ccc(C)cc1 (stereo not drawn)
IC50 (Caco-2; cell growth or viability, MTT; 48 h): 30 µM

[CH3][Ti+2][O]C(=O)c1ccc([S][Au][PH](c2ccccc2)(c2ccccc2)[c-]2cccc2)cc1.[Fe+2].c1cc[cH-]c1.c1cc[cH-]c1.c1cc[cH-]c1
IC50 (CAKI-1; cell growth or viability, XTT; 72 h): 4.11 µM

[Cl][Ag].[Se]=c1n(C2CCCCC2)ccn1C1CCCCC1
IC50 (A-375; cell growth or viability, MTT; 72 h): 1.1 µM

COC(=O)C[C@](O)(CCCC(C)(C)OC(C)=O)C(=O)O[C@@H]1C(OC)=C[C@]23CCCN2CCc2cc4c(cc2[C@H]13)OCO4
IC50 (pancreatic cancer cell lines; cell viability, MTT; 72 h, average over cell lines): 0.0513 µM

Cc1cc(C)c(-n2ccn(-c3c(C)cc(C)cc3C)c2=[Se])c(C)c1.[Cl][Ag]
IC50 (H157 spheroids; acid phosphatase; 72 h, 3D spheroid): 8.7 ± 1.5 µM

C[C@H]1C(OCCCCCC[P+](c2ccccc2)(c2ccccc2)c2ccccc2)O[C@@H]2O[C@@]3(C)CCC4[C@H](C)CCC1[C@]42OO3 (stereo partly drawn)
IC50 (OVCAR-3; cell growth or viability, MTT; 72 h): 0.129 µM

COc1ccc(C(c2c(C)nn(-c3ccccc3)c2O)c2c(C)nn(-c3ccccc3)c2O)cc1OC
IC50 (various human cancer cell lines; cell growth, MTT): 5.45 to 18.3 µM

Cc1cc(C)c(N2CCN(c3c(C)cc(C)cc3C)C2=[Se])c(C)c1.[Cl][Au]
IC50 (A-375; cell growth or viability, MTT; 72 h): 1.3 µM

C[C@H]1C(OCCCCCCC[P+](c2ccccc2)(c2ccccc2)c2ccccc2)O[C@@H]2O[C@@]3(C)CCC4[C@H](C)CCC1[C@]42OO3 (stereo partly drawn)
IC50 (OVCAR-3; cell growth or viability, MTT; 72 h): 0.103 µM

Cc1cc(Nc2nc(C[C@@]3(C(=O)O)CCN(Cc4cccc(Cl)c4F)[C@H](C)C3)cc(C)c2F)[nH]n1
IC50 (SW1271; cell growth or viability, ATP luminescence; 5 days): 0.225 µM

CC(=O)N[C@@H](Cc1c[nH]c2ccccc12)C(=O)N[C@@H](CCC(=O)O)C(=O)N[C@@H](Cc1c[nH]cn1)C(=O)N[C@@H](CC(=O)O)C(=O)COC(=O)c1c(C)cccc1C
IC50 (EA.hy 926; cell growth or viability, LDH; 26 h): ~2.5 µM

CC1=C2[C@@H](O)[C@H](C(=O)O)CC[C@@]2(C)CCC1=O
IC50 (human Neutrophil; elastase release, inhibitor): > 10 µM

O=C(Cc1ccc2ccccc2c1)N[C@H](Cc1ccc(OP(=O)(O)O)cc1)C(=O)N[C@H](Cc1ccccc1)C(=O)N[C@H](Cc1ccccc1)C(=O)N[C@H](Cc1ccc(OP(=O)(O)O)cc1)C(=O)O
IC50 (SAOS-2; cell growth or viability, MTT): 338 µg/mL

COc1cccc2c1C(=O)c1c(O)c3c(c(O)c1C2=O)C[C@@](O)(C(=O)CO)C[C@@H]3O[C@H]1C[C@H](NC(=O)CCN2C(=O)CC(SC[C@H](N)C(=O)N3CCC[C@H]3C(=O)N[C@@H](CCCCN)C(=O)N[C@@H](CCCCN)C(=O)N[C@@H](CCCCN)C(=O)N[C@@H](CCCNC(=N)N)C(=O)N[C@@H](CCCCN)C(=O)N[C@H](C(N)=O)C(C)C)C2=O)[C@H](O)[C@H](C)O1 (stereo partly drawn)
IC50 (MCF7/ADR doxorubicin-resistant; CCK-8; 48 h, doxorubicin-equivalent dose): 16.5 ± 1.73 µM

Cc1ccc(C(c2c(C)nn(-c3ccccc3)c2O)c2c(C)nn(-c3ccccc3)c2O)cc1
IC50 (Ishikawa; cell growth or viability, MTT; 48 h): > 40 µM

CNC(=O)C(NC(=O)c1ccccc1-c1ccc(C(F)(F)F)cc1)c1cccc(C(F)(F)F)c1 (stereo not drawn)
IC50 (KHYG-1 and MICA-expressing Ba/F3; NKG2D-mediated cell killing; 6 h): > 20 µM

CCC(C)C1OC(=O)C(NC(=O)c2cccc(NC=O)c2O)C(C)OC(=O)C(C(C)CC)OC(=O)C(C)(C)C(O)C(Cc2ccccc2)OC1=O (stereo not drawn)
IC50 (PC-9/GR gefitinib-resistant; cell viability, CCK-8; 72 h): 0.779 ± 0.13 µM

COc1ccc2sc3c(c2c1)SCCNC3=O
IC50 (PANC-1; cell growth or viability, MTT): 28 µM

CC[C@H](C)[C@H](NC(=O)CNC(=O)[C@H](C)NC(=O)[C@@H]1CCCN1C(=O)CNC(=O)[C@H](C)NC(=O)[C@H](CCC(=O)O)NC(=O)[C@@H]1CCCN1C(=O)[C@H](CC(=O)O)NC(=O)[C@H](C)NC(=O)[C@H](CCC(=O)O)NC(=O)[C@H](C)NC(=O)[C@H](CC(=O)O)NC(=O)[C@H](C)NC(=O)[C@H](CCC(=O)O)NC(=O)[C@H](C)NC(=O)[C@H](CCC(=O)O)NC(=O)[C@@H]1CCCN1C(=O)[C@@H](N)CCC(=O)O)C(=O)NCC(=O)N[C@@H](C)C(=O)N[C@H](C(=O)N[C@@H](CC(C)C)C(=O)N[C@@H](CCCCN)C(=O)N[C@H](C(=O)N[C@@H](CC(C)C)C(=O)N[C@H](C(=O)N[C@H](C(=O)NCC(=O)N[C@@H](CC(C)C)C(=O)N1CCC[C@H]1C(=O)N[C@@H](C)C(=O)N[C@@H](CC(C)C)C(=O)N[C@H](C(=O)N[C@@H](CO)C(=O)N[C@@H](Cc1c[nH]c2ccccc12)C(=O)N[C@H](C(=O)N[C@@H](CCCCN)C(=O)N[C@@H](CCCNC(=N)N)C(=O)N[C@@H](CCCCN)C(=O)N[C@@H](CCCNC(=N)N)C(=O)N[C@@H](CCC(N)=O)C(=O)N[C@@H](CCC(N)=O)C(N)=O)[C@@H](C)CC)[C@@H](C)CC)[C@@H](C)O)[C@@H](C)O)C(C)C)C(C)C
IC50 (MCF7 FAP-transfected; cell viability, MTT; 72 h): 18.9 ± 1.7 µM

CNC(=O)c1cc(Oc2ccc(NC(=O)c3cc(-c4ccc(COC(=O)CCC(=O)OC5OC6OC7(C)CCC8C(C)CCC(C5C)C68OO7)cc4)ccn3)cc2)ccn1 (stereo not drawn)
IC50 (Hep3B; cell growth or viability, MTT; 72 h): 10.9 µM

C[C@@H]1N=C(c2ccccc2)c2cc(C#CCCCC(=O)NO)ccc2N(C)C1=O
IC50 (KG-1a; apoptosis, flow cytometry; 48 h): 1.4 to 2.1 µM

C[C@@H](N)[C@H](O)CCCCCCCC(=O)CCCCCCCCCCCCCC[C@@H](O[C@@H]1O[C@H](CO)[C@@H](O)[C@H](O)[C@H]1O)[C@@H](N)CO
IC50 (HCC70; cell growth or viability, resazurin; 96 h): 8.75 µM

For quick reference, copied from above:
CNC(=O)c1cc(Oc2ccc(NC(=O)c3cc(-c4cccc(COC(=O)CCC(=O)OC5OC6OC7(C)CCC8C(C)CCC(C5C)C68OO7)c4)ccn3)cc2)ccn1 (stereo not drawn)
IC50 (Huh-7; cell growth or viability, MTT; 72 h): 10.8 µM

Oc1c(CN(Cc2ccccn2)Cc2ccccn2)cc(CCn2cc(COCCOCCOCCOCc3cn(CCc4cc(CN(Cc5ccccn5)Cc5ccccn5)c(O)c(CN(Cc5ccccn5)Cc5ccccn5)c4)nn3)nn2)cc1CN(Cc1ccccn1)Cc1ccccn1
IC50 (CHO-K1; cytotoxicity; 72 h): > 100 µM

C[C@H]1[C@H](OC(=O)CCC(=O)Oc2ccc(C(N)=S)cc2)O[C@@H]2O[C@@]3(C)CC[C@H]4[C@H](C)CC[C@@H]1[C@@]24OO3
IC50 (K562; cell growth or viability, CCK-8; 72 h): 1.03 µM
